Published values pooled from the literature.
Every numbered part comes from another study and shows a few of its results, in no order.

Sample 1 — method: RNA Bind-n-Seq; molecule type: RNA; medium: in vitro; concentration: 1 µM; notes: whole 134-nt RNA, ends assumed; with: 150 mM KCl; reference: input library; direction: higher = stronger binding
Target: Ras GTPase-activating protein-binding protein 1, C-terminal RGG region (G3BP1, Homo sapiens, UniProt Q13283)
Sequence of UniProt Q13283 (whole entry, looked up): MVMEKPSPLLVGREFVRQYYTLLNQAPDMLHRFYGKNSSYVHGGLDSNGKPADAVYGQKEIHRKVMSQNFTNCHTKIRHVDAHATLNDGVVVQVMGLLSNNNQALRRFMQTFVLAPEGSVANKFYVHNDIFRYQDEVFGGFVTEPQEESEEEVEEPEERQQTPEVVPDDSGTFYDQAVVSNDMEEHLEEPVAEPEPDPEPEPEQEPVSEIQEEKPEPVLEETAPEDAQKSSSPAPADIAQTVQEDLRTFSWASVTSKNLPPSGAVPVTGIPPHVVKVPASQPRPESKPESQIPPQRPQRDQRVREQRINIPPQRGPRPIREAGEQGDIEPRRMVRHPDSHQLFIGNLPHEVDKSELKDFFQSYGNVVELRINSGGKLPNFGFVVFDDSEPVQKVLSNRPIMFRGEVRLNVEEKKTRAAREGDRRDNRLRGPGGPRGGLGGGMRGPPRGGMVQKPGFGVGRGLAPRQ
Oligonucleotide | log2 enrichment
GGGAGUUCUACAGUCCGACGAUCUAACUUUAGAGGAGGAUCUGAUGGAUAUGGCAGUGGACGUGGAUUUGGGGAUGGCUAUAAUGGGUAUGGAGGAGGACCUGGAGGUGGCCAUGGAAUUCUCGGGUGUCAAGG | -0.63
GGGAGUUCUACAGUCCGACGAUCCCUGUGCUACACAUCGUAUGUACCGAAUCGGGAAAAAAGGGGAAAAAAGGGGAAAAAAGGGAAAGUAUUAUGUUACGCCGUUCGGAUCUGUGGAAUUCUCGGGUGUCAAGG | -0.99
GGGAGUUCUACAGUCCGACGAUCAAGUCCUGUGCUACACAUCGUAUGUACCGAAUCGGGGUUUGGGGAAAGGGGAGGGGAAAGUAUUAUGUUACGCCGUUCGGAUCUGCACUUUGGAAUUCUCGGGUGUCAAGG | 3.4
GGGAGUUCUACAGUCCGACGAUCGGAAGGGGGCUUGCGCCACGGCAGUGAAUCUUCAUGGAUCUUCAUGCAGCCAUACAAACCCUGGUUCCAACAGAAUGGUGAAUUUUCGACUGGAAUUCUCGGGUGUCAAGG | -1.38

Sample 2 — method: protein binding microarray; molecule type: double-stranded DNA, one strand shown; medium: in vitro; concentration: not given; reference: not given; direction: higher = stronger binding
Target: Histone acetyltransferase KAT6A, winged helix 2, GST fusion (KAT6A, Homo sapiens, UniProt Q92794, residues 85-181)
Notes: 8-mer, flanks averaged, mean of 2 arrays, mostly near background
Construct (chain): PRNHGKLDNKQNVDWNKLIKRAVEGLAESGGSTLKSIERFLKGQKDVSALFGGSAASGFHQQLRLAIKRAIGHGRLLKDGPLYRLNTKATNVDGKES
Oligonucleotide | E-score
CACAACTG | -0.171
GGCGGGAC | 0.182
CAAGAACA | 0.0675
AACACGCC | -0.0746
CGACAGGC | 0.107

Sample 3 — method: RNA Bind-n-Seq; molecule type: RNA; medium: in vitro; concentration: 365 nM; reference: no-protein control; direction: higher = stronger binding
Target: RNA binding protein fox-1 homolog 2, RRM domain, GST-SBP tag (RBFOX2, Homo sapiens, UniProt O43251-10, residues 100-194)
Notes: natural RNA segment, single round, ends assumed
Residues (chain): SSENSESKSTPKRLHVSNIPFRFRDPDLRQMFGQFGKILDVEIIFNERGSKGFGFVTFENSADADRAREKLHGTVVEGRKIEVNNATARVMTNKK
Oligonucleotide | RBNS enrichment (R)
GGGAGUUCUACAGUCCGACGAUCAGAGAAAUUCCCCCGAAGACUGAGCUGGUUGCCUGCAUCCUCUAUCUUCUUUGACCCUUAUGACUGAAAGAUCAUCAGUUUGGAAGGUACUGGUCCAAUUUAUUUAGGAAUGGAAUUCUCGGGUGCCAA | 1.04
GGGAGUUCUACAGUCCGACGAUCUUCACAGGCCAUUUCUGUGAACCCUACUCCAUUGUGGUUUCUGCCACUAUCAAAGUUCCAGCUACCUGCAAGGUGAAGGAAGGCAUCCCUUUUGGGGCAUGCACUUUCUUUGGAAUUCUCGGGUGCCAA | 0.17
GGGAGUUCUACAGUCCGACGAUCACAGAAGGCAUUGUUCCCUACCCUCUGGCGAGUGCAUGCAGCAGAGAGUUAGACAGCAACUUACCUACUCUGAAGUUUUCUACAACAAAAAAAGAGUUGAGUGAAUCUGUUGGAAUUCUCGGGUGCCAA | 16.4
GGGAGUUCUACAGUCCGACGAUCAGUUUUCUCCCAUUCCGUCGUCACCCGUGCCCCUCACCCACAAUCCCCUUGUUGGACACACUGCCUUUCUCCUCCUCCUUUGCCGCUGGCAAGAGCCAGUGCCUGACUGAUGGAAUUCUCGGGUGCCAA | 0.529
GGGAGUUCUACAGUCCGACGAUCCAUCUCUUAUAGGAAUCAAAGUUUAUUAAAGUUACAUAGAGGAUUGAAAAAUGUAUAUCACUCAAUUUUUAUCUAAGAAGGAUAGGUUAUAAAGGGAGGUACCUAAAUACUGGAAUUCUCGGGUGCCAA | 1.1

Single results of other studies
Molecule | target | assay | system | conditions | scale | measurement | result
PhoQ, residues 284 288 289 292 302 303 AAQSYM | PhoP, residues 12 14 15 18 19 TTLRV (Escherichia coli, UniProt P23836) | Sort-seq, measured: YFP reporter | E. coli | PhoQ-PhoP variant library, with: 10 µM Mg2+ | reference: high Mg2+ state, higher = stronger signaling | fold induction | 9.45

Repeated from above (sample 1):
Oligonucleotide | log2 enrichment
GGGAGUUCUACAGUCCGACGAUCAAGUCCUGUGCUACACAUCGUAUGUACCGAAUCGGGGUUUGGGGAAAGGGGAGGGGAAAGUAUUAUGUUACGCCGUUCGGAUCUGCACUUUGGAAUUCUCGGGUGUCAAGG | 3.4
GGGAGUUCUACAGUCCGACGAUCUAACUUUAGAGGAGGAUCUGAUGGAUAUGGCAGUGGACGUGGAUUUGGGGAUGGCUAUAAUGGGUAUGGAGGAGGACCUGGAGGUGGCCAUGGAAUUCUCGGGUGUCAAGG | -0.63
